Measurements from different studies.
Numbers after ± are the reported error.

CCC/C(=C\C1=C(OC)C(=O)c2ccccc2C1=O)C(=O)NOC — CLint (human liver S9; 1 µM, phase II UGT conditions): 4.7 mL/min/kg
CCCC[C@H](NC(=O)CNC(=O)CNC(=O)CN1CCN(CC(=O)O)CCN(CC(=O)O)CCN(CC(=O)O)CC1)C(=O)N[C@H]1CC(=O)NCCCC[C@@H](C(N)=O)NC(=O)[C@H](Cc2c[nH]c3ccccc23)NC(=O)[C@H](CCCNC(=N)N)NC(=O)[C@@H](Cc2ccccc2)NC(=O)[C@H](Cc2c[nH]cn2)NC1=O [copper-64 labelled] — uptake ratio (female C57 mouse, B16/F1 melanoma; intravenous, 0.037 MBq, 0.5 h; baseline: tumour over blood): 2.41
CN1C(=O)[C@@H](Cc2ccc(O)c(I)c2)NC(=O)CNC(=O)[C@H](Cc2ccc3ccccc3c2)NC(=O)[C@H](CCCNC(=N)N)NC(=O)[C@H]1CCCNC(=O)c1ccc(CNC(=O)CN2CCN(CC(=O)O)CCN(CC(=O)O)CCN(CC(=O)O)CC2)cc1 [lutetium-177 labelled] — tissue uptake (item: 177Lu radioactivity; female CB-17 SCID mice, Daudi xenograft, stomach; intravenous, 0.16 nmol per mouse, 1 h): 1.2 ± 0.3 %ID/g
Cc1cccc(Cn2ncc3c4cc(F)c(CN(C)C)cc4n(C)c3c2=O)n1 — half-life of PK activation (mouse, retina; intraperitoneal, 25 and 50 mg/kg): ~576 h
Cc1ccc(CNC(=O)Cc2ccc(-c3ccc(OCCN4CCOCC4)cc3)cn2)cc1 — unbound fraction (human, plasma): 0.065
CCN(c1cc(C#CCN2CCOCC2)cc(C(=O)NCc2c(C)cc(C)[nH]c2=O)c1C)[C@H]1CC[C@H](N(C)CCOC)CC1 — scaled intrinsic clearance (human liver microsomes; well-stirred model): 6 mL/min/kg
NS(=O)(=O)c1ccc(N2N=C(C(F)(F)F)CC2c2ccc(F)cc2F)cc1 (stereo not shown) — terminal half-life (population PK model; Beagle dog, plasma; oral): 33.6 h
COc1cc2c(cc1OC)CN(CCCCn1ccc3cc(OCC[18F])ccc31)C2 — blood uptake (male ICR mice; intravenous, 30 min post-injection): 1.19 ± 0.17 %ID/g
N=C(N)NCCC[C@@H]1NC(=O)[C@H](Cc2c[nH]c3ccccc23)NC(=O)[C@@H](CC2CCCCC2)NC(=O)[C@@H]2CCCN2C(=O)[C@@H](NC(=O)CCc2ccccc2)CCCNC1=O — apparent central volume (V1/F) (C57BL/6J mice, spinal cord; oral, 1 mg/kg, two-compartment model): 0.05 µg/(ng/g)
C[C@H]1CO[C@@H]2Cn3cc(C(=O)NCc4ccc(F)cc4F)c(=O)c(O[C@@H]4O[C@H](C(=O)O)[C@@H](O)[C@H](O)[C@H]4O)c3C(=O)N12 — plasma concentration (LC-MS/MS; human, UGT1A1 wild-type, plasma; oral, 30 mg, 1 weeks after last oral dose): 22.6 ± 57.4 ng/mL
Cc1[nH]c(/C=C2\C(=O)Nc3ccc(F)cc32)c(C)c1NC(=O)CCN1CCN(C)CC1 — terminal half-life (Beagle dog, both sexes, plasma; oral, 3 mg/kg): 11 ± 2.57 h
CC=C1C(OC2OC(CO)C(O)C(O)C2O)OC=C(C(=O)OC)C1CC(=O)OCC1OC(OCCc2ccc(O)cc2)C(O)C(O)C1O (stereo not shown) — t1/2 (tumour-bearing BALB/c mouse, plasma; oral, 109.2 mg/kg): 0.452 h
OCc1cn(Cc2ccc(-c3noc(-c4ccc(OCC[18F])c(C(F)(F)F)c4)n3)cc2)nn1 — tracer uptake (rat, heart; intravenous, 5 min): 1.65 %ID/g
CCC(=O)N(C)c1ccc(Cl)c(Cl)c1 — concentration (mouse, plasma; subcutaneous, 40 mg/kg, 1 h): 7.07 µM
CCC1CNC(CC)CN(C(C(=O)[O-])c2ccc(C(=O)[O-])cc2)C(CC)CN(CC(=O)[O-])C(CC)CN1.[Mn+2] (stereo not shown) — Mn content (ICP-MS; BALB/c mice, liver; intravenous, 0.05 mmol/kg, 5 min): 5.03 µg/g
NC[C@@H](C(=O)Nc1ccc(-c2cn[nH]c2)cc1)c1ccccc1 — ocular irritation score (OECD 405, item: Chemosis; New Zealand White rabbit; topical, 0.1 %, 73 h, day 4; direction not given): 0

Some of these lines once more:
CCC(=O)N(C)c1ccc(Cl)c(Cl)c1 — concentration (mouse, plasma; subcutaneous, 40 mg/kg, 1 h): 7.07 µM
